# Assay results of several laboratories.
# A part holds a random share of what one study measured.
# UniProt P41595, sequence (whole entry, looked up): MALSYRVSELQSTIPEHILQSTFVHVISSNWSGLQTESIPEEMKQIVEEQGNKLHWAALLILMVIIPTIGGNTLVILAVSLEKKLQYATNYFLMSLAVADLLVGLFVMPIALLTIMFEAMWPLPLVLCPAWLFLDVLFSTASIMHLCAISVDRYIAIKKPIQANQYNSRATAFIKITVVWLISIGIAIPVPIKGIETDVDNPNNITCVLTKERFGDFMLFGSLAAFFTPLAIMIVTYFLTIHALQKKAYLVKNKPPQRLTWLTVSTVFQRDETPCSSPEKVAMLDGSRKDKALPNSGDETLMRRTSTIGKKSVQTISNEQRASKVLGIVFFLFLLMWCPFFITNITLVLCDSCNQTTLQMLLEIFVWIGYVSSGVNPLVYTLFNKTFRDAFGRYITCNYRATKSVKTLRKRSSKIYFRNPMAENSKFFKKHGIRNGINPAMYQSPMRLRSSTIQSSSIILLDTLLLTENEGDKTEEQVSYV
# UniProt P54646, sequence (whole entry, looked up): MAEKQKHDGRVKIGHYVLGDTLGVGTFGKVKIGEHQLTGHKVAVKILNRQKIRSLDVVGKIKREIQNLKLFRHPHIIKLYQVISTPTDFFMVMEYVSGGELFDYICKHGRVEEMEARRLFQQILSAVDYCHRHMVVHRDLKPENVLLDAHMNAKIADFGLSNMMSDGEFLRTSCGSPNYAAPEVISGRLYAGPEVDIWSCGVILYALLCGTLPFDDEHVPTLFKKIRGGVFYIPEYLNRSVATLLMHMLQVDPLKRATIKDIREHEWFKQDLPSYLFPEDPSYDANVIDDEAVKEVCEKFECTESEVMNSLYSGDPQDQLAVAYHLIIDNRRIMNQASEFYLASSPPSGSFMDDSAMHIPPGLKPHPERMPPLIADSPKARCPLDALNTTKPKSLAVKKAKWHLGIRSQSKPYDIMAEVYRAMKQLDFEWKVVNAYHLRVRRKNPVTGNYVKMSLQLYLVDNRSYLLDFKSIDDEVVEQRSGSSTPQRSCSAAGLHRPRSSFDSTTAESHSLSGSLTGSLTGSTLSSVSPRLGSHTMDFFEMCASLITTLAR
# UniProt O43683, sequence (whole entry, looked up): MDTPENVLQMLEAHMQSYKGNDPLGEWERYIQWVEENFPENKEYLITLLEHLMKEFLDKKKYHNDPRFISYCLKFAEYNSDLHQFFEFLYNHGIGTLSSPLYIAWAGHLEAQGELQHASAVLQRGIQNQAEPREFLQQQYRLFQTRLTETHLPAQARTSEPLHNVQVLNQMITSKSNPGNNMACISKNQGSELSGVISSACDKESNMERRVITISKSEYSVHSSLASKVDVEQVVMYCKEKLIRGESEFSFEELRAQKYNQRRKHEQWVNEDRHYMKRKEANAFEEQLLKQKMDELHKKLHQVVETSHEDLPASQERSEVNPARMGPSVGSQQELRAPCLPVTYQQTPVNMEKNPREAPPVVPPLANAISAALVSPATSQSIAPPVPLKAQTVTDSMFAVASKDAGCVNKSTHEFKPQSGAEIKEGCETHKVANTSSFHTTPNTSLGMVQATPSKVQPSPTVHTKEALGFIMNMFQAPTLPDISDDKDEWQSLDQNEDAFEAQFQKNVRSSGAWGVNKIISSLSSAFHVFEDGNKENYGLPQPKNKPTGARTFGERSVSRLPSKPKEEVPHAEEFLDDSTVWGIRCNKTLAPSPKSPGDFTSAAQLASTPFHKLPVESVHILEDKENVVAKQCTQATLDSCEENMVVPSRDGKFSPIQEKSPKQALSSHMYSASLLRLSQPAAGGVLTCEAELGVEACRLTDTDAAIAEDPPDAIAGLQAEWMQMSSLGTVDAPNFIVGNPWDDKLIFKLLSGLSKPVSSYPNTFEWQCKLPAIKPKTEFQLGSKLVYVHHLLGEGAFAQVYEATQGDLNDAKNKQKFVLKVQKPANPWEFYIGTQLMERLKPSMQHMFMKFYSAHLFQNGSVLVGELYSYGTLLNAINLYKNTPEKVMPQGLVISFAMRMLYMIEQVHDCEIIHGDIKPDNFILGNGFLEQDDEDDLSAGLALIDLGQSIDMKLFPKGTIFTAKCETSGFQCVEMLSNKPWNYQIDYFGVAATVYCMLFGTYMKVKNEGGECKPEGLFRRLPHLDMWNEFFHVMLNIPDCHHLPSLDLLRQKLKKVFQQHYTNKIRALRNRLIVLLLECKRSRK
# UniProt P52564, sequence (whole entry, looked up): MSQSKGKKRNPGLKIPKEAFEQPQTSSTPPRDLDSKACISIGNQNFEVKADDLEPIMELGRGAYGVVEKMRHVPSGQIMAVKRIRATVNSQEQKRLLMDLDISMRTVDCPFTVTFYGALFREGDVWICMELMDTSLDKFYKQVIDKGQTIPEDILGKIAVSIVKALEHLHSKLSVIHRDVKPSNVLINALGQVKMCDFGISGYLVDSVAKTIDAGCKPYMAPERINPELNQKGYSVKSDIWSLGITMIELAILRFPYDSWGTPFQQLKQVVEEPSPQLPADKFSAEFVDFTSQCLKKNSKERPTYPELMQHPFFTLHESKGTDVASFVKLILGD
# UniProt Q16566, sequence (whole entry, looked up): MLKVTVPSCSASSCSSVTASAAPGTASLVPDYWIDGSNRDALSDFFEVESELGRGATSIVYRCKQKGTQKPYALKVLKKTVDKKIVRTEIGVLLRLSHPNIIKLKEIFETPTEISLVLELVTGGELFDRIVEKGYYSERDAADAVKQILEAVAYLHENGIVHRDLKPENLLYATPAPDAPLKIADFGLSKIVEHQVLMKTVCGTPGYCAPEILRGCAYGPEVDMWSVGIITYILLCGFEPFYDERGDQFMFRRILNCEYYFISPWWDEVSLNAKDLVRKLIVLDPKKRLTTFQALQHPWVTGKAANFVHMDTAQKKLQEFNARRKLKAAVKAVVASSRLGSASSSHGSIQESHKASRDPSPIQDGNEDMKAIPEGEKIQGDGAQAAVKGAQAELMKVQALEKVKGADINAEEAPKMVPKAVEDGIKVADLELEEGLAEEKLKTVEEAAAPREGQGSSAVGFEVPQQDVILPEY
# UniProt P00519, sequence (whole entry, unmodified, looked up): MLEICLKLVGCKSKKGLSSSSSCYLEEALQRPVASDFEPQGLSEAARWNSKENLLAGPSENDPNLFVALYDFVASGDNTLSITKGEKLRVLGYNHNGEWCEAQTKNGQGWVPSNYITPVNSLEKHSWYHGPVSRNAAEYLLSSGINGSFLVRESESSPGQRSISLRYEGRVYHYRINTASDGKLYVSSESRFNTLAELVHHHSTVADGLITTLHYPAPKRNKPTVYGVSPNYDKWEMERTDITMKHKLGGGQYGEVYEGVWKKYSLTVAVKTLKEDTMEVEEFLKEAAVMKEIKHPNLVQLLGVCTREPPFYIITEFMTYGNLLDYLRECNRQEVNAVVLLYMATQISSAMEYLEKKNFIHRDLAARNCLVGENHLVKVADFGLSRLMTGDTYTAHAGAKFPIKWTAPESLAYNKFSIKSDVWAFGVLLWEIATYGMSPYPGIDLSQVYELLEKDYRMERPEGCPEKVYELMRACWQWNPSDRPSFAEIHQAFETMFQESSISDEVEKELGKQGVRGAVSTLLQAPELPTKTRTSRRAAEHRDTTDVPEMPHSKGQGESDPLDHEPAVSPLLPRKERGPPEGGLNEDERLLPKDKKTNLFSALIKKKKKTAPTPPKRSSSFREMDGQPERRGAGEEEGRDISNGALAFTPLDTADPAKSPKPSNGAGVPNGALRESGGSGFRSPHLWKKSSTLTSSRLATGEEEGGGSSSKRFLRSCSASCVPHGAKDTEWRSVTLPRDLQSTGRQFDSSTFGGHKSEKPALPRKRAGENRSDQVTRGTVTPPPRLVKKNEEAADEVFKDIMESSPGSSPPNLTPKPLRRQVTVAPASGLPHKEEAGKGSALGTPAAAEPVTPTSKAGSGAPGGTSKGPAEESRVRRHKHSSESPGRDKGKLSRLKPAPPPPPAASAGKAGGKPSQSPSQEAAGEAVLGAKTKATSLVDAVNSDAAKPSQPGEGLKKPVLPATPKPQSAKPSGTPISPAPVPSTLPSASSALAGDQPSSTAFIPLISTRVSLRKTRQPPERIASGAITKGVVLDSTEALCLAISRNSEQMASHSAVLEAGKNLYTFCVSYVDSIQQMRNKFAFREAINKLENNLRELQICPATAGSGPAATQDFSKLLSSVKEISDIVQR
# UniProt O15146, sequence (whole entry, looked up): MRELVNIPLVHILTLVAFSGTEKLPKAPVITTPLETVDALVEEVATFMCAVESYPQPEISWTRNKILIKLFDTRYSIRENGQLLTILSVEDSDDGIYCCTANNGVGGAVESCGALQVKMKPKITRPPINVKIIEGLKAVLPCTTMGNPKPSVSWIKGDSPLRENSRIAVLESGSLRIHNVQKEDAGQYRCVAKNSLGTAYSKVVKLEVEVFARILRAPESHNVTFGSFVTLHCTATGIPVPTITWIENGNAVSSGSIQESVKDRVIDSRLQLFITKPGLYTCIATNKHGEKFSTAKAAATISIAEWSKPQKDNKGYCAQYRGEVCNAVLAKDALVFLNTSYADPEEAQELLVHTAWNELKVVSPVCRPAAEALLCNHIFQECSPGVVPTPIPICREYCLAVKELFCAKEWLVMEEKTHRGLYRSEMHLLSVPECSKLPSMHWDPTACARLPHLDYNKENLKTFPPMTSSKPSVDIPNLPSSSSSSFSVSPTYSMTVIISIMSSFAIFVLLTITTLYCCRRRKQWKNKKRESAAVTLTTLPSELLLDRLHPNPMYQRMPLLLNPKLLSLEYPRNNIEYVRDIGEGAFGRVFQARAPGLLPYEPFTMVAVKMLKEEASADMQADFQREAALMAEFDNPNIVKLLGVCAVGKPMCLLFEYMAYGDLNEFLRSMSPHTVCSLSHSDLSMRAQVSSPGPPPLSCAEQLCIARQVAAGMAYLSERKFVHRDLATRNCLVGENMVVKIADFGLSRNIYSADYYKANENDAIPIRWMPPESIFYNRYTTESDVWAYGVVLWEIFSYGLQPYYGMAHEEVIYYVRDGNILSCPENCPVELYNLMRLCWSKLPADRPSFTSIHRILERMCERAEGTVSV

# Series 1 — read-out: binding; tested at: 1 µM
# Compound: COc1ccc2[nH]c3c4[nH]c5ccc(OC)cc5c4c4c(c3c2c1)C(=O)NC4=O
target,method,remaining binding [%]
"Calcium/calmodulin-dependent protein kinase type IV (CAMK4, Homo sapiens, UniProt Q16566)",,98
"5'-AMP-activated protein kinase catalytic subunit alpha-2 (PRKAA2, Homo sapiens, UniProt P54646)",,54
"Muscle, skeletal receptor tyrosine-protein kinase (MUSK, Homo sapiens, UniProt O15146)",competition with immobilised ligand,83
"Receptor-type tyrosine-protein kinase FLT3 (FLT3, Homo sapiens, UniProt P36888, N841I)",,0
"Dual specificity mitogen-activated protein kinase kinase 6 (MAP2K6, Homo sapiens, UniProt P52564)",,97
"Mitotic checkpoint serine/threonine-protein kinase BUB1 (BUB1, Homo sapiens, UniProt O43683)",,29
"Tyrosine-protein kinase ABL1 (ABL1, Homo sapiens, UniProt P00519, Q252H)",,28

# Series 2 — cell line: HaCaT; tested at: 100 µM; time: 36 h
SMILES,viability [%]
C[C@@H]1O[C@@H](OC[C@H]2O[C@@H](Oc3c(-c4ccc(OCCO)c(OCCO)c4)oc4cc(OCCO)cc(O)c4c3=O)[C@H](O)[C@@H](O)[C@@H]2O)[C@H](O)[C@H](O)[C@H]1O,89.9
CNNCc1ccc(C(=O)NC(C)C)cc1,98.2
Cc1cc(=O)oc2cc(O)ccc12,52.1
CC(C)Cn1cnc2c(N)nc3ccccc3c21,65.3
CN(C)CCOC(c1ccc(Cl)cc1)c1ccccn1 (stereo not shown),93.1

# Mixed results
# CDK2 with cyclin E: Cyclin-dependent kinase 2, with cyclin E (CDK2, Homo sapiens, UniProt P24941)
Structure (SMILES),target,read-out,method,tested at,measurement,result
Cc1ccc(NC2=CC(=O)c3sc(C)nc3C2=O)cc1,CDK2 with cyclin E,cell-free assay,,0.5 µM,remaining signal,72.9%
CN1CCN(C(=O)C(C)(C)c2ccc(C(=O)Nc3cn4cc(-c5ccncc5)ccc4n3)cc2)CC1,"5-hydroxytryptamine receptor 2B (HTR2B, Homo sapiens, UniProt P41595)",binding,radioligand binding,10 µM,inhibition,-7.63%
O=C1Cc2c([nH]c3ccc([N+](=O)[O-])cc23)-c2ccccc2N1,CDK2 with cyclin E,cell-free assay,,0.5 µM,remaining signal,19.6%
O=C1CCc2cc(Nc3cc(OC4CCOCC4)c([N+](=O)[O-])cc3Cl)ccc2N1,"5-hydroxytryptamine receptor 5A (HTR5A, Homo sapiens, UniProt P47898)",binding,radioligand binding,10 µM,inhibition,6.14%
